Measured values collected from several papers.
Target: C-X-C chemokine receptor type 4 (CXCR4, Homo sapiens, UniProt P61073)

N=C(N)NCCC[C@@H]1NC(=O)[C@@H]2CSSC[C@H](NC(=O)[C@H](Cc3ccc4ccccc4c3)NC(=O)[C@H](CCCNC(=N)N)NC(=O)[C@H](CCCNC(=N)N)NC(=O)[C@H]3CCCN3C(=O)CNC1=O)C(=O)N[C@@H](Cc1ccc(O)cc1)C(=O)N[C@@H](CCC(N)=O)C(=O)N[C@@H](CCCCNC(=O)CN1CCN(CC(=O)O)CCN(CC(=O)O)CCN(CC(=O)O)CC1)C(=O)N1CCC[C@@H]1C(=O)N1CCC[C@H]1C(=O)N[C@@H](Cc1ccc(O)cc1)C(=O)N[C@@H](CCCNC(=N)N)C(=O)N[C@@H](CCCNC(N)=O)C(=O)N2 — IC50: 0.47 nM
CC(C)C[C@@H](N)C(=O)NCC(=O)N[C@H](C)C(=O)N[C@H](CO)C(=O)N[C@H](Cc1c[nH]c2ccccc12)C(=O)N[C@H](Cc1c[nH]cn1)C(=O)N[C@H](CCCNC(=N)N)C(=O)N1CCC[C@@H]1C(=O)N[C@H](CC(=O)O)C(=O)N[C@H](CCCCN)C(=O)N[C@H](CSSC[C@@H](NC(=O)[C@@H](CCCCN)NC(=O)[C@@H](CC(=O)O)NC(=O)[C@H]1CCCN1C(=O)[C@@H](CCCNC(=N)N)NC(=O)[C@@H](Cc1c[nH]cn1)NC(=O)[C@@H](Cc1c[nH]c2ccccc12)NC(=O)[C@@H](CO)NC(=O)[C@@H](C)NC(=O)CNC(=O)[C@H](N)CC(C)C)C(=O)N[C@H](C)C(=O)N[C@H](CC(C)C)C(=O)NCC(=O)N[C@H](Cc1ccc(O)cc1)C(=O)N[C@H](CCC(N)=O)C(=O)N[C@H](CCCCN)C(=O)N[C@H](CCCNC(=N)N)C(=O)N1CCC[C@@H]1C(=O)N[C@H](CC(C)C)C(=O)N1CCC[C@@H]1C(N)=O)C(=O)N[C@H](C)C(=O)N[C@H](CC(C)C)C(=O)NCC(=O)N[C@H](Cc1ccc(O)cc1)C(=O)N[C@H](CCC(N)=O)C(=O)N[C@H](CCCCN)C(=O)N[C@H](CCCNC(=N)N)C(=O)N1CCC[C@@H]1C(=O)N[C@H](CC(C)C)C(=O)N1CCC[C@@H]1C(N)=O — IC50 (ligand displacement): 3 nM
CCOc1ccccc1-c1nnc2n1N=C(c1ccc(N3CCCC3=O)cc1)CS2 — EC50 (cAMP, agonist): 80 nM
CC(=O)[O][Cu+].CN1CCCN2CCN(C)CCCN(CC1)CC2 — IC50 (ligand displacement, flow cytometry): 28 nM
CC(C)C[C@@H](N)C(=O)NCC(=O)N[C@H](C)C(=O)N[C@H](CO)C(=O)N[C@H](Cc1c[nH]c2ccccc12)C(=O)N[C@H](Cc1c[nH]cn1)C(=O)N[C@H](CCCNC(=N)N)C(=O)N1CCC[C@@H]1C(=O)N[C@H](CC(=O)O)C(=O)N[C@H](CCCCN)C(=O)N[C@H](CCCCN)C(=O)N[C@H](CCCNC(=N)N)C(=O)NCCCCCC(=O)N[C@@H](CCCCN)C(=O)N[C@@H](CCCNC(=N)N)C(=O)N[C@@H](CCCCN)C(=O)N[C@H](C(=O)N[C@@H](CC(N)=O)C(=O)N[C@@H](CC(N)=O)C(=O)N[C@@H](CC(N)=O)C(=O)N1CCC[C@H]1C(=O)N[C@@H](CCCNC(=N)N)C(=O)N[C@H](C(=O)N[C@@H](CS)C(N)=O)[C@@H](C)O)[C@@H](C)O — IC50 (cell migration, antagonist): 2870 nM
CC(=O)[O][Cu+].CN1CCN2CCN(C)CCN(CC1)CC2 — IC50 (calcium signal, antagonist, fluorescence): 298 nM
N=C(N)NCCC[C@H](NC(=O)[C@@H]1CSSC[C@H](NC(=O)[C@H](Cc2ccc3ccccc3c2)NC(=O)[C@H](CCCNC(=N)N)NC(=O)[C@H](CCCNC(=N)N)NC(=O)c2ccc(F)cc2)C(=O)N[C@@H](Cc2ccc(O)cc2)C(=O)N[C@@H](CCCNC(N)=O)C(=O)N[C@@H](CCCCNC(=O)CN2CCN(CC(=O)O)CCN(CC(=O)O)CCN(CC(=O)O)CC2)C(=O)N[C@H](CCCCNC(=O)CN2CCN(CC(=O)O)CCN(CC(=O)O)CCN(CC(=O)O)CC2)C(=O)N2CCC[C@H]2C(=O)N[C@@H](Cc2ccc(O)cc2)C(=O)N[C@@H](CCCNC(=N)N)C(=O)N[C@@H](CCCNC(N)=O)C(=O)N1)C(N)=O — IC50 (ligand displacement, radioligand): 2.47 nM
CN1C(=O)[C@@H](Cc2ccc(O)c(I)c2)NC(=O)CNC(=O)[C@H](Cc2ccc3ccccc3c2)NC(=O)[C@H](CCCNC(=N)N)NC(=O)[C@H]1CCCNC(=S)Nc1ccc(CN2CCN(CC(=O)O)CCN(CC(=O)O)CC2)cc1 — IC50 (ligand displacement, radioligand): 100 nM
CC(C)C[C@@H](N)C(=O)NCC(=O)N[C@H](C)C(=O)N[C@H](CO)C(=O)N[C@H](Cc1c[nH]c2ccccc12)C(=O)N[C@H](Cc1cnc[nH]1)C(=O)N[C@H](CCCNC(=N)N)C(=O)N1CCC[C@@H]1C(=O)N[C@H](CC(=O)O)C(=O)N[C@H](CCCCN)C(N)=O — IC50 (ligand displacement in cells): 2000 nM
CN1C(=O)[C@@H](Cc2ccc(O)c(I)c2)NC(=O)CNC(=O)[C@H](Cc2ccc3ccccc3c2)NC(=O)[C@H](CCCNC(=N)N)NC(=O)[C@H]1CCCNC(=O)c1ccc(CNC(=O)CN2CCN(CC(=O)O)CCN(CC(=O)O)CC2)cc1 — IC50 (ligand displacement, radioligand): 27.5 nM
N=C(N)NCCC[C@@H]1NC(=O)[C@@H]2CSSC[C@H](NC(=O)[C@H](Cc3ccc4ccccc4c3)NC(=O)[C@H](CCCNC(=N)N)NC(=O)[C@H](CCCNC(=N)N)NC(=O)[C@H]3CCCN3C(=O)CNC1=O)C(=O)N[C@@H](Cc1ccc(O)cc1)C(=O)N[C@@H](CCC(N)=O)C(=O)N[C@@H](CCCCNC(=O)CCOCCOCCOCCOCCOCCOCCOCCOCCOCCOCCOCCOCCNC(=O)CN1CCN(CC(=O)O)CCN(CC(=O)O)CCN(CC(=O)O)CC1)C(=O)N1CCC[C@@H]1C(=O)N1CCC[C@H]1C(=O)N[C@@H](Cc1ccc(O)cc1)C(=O)N[C@@H](CCCNC(=N)N)C(=O)N[C@@H](CCCNC(N)=O)C(=O)N2 — IC50: 1.42 nM

A few entries again:
CC(=O)[O][Cu+].CN1CCN2CCN(C)CCN(CC1)CC2 — IC50 (calcium signal, antagonist, fluorescence): 298 nM
CC(C)C[C@@H](N)C(=O)NCC(=O)N[C@H](C)C(=O)N[C@H](CO)C(=O)N[C@H](Cc1c[nH]c2ccccc12)C(=O)N[C@H](Cc1c[nH]cn1)C(=O)N[C@H](CCCNC(=N)N)C(=O)N1CCC[C@@H]1C(=O)N[C@H](CC(=O)O)C(=O)N[C@H](CCCCN)C(=O)N[C@H](CCCCN)C(=O)N[C@H](CCCNC(=N)N)C(=O)NCCCCCC(=O)N[C@@H](CCCCN)C(=O)N[C@@H](CCCNC(=N)N)C(=O)N[C@@H](CCCCN)C(=O)N[C@H](C(=O)N[C@@H](CC(N)=O)C(=O)N[C@@H](CC(N)=O)C(=O)N[C@@H](CC(N)=O)C(=O)N1CCC[C@H]1C(=O)N[C@@H](CCCNC(=N)N)C(=O)N[C@H](C(=O)N[C@@H](CS)C(N)=O)[C@@H](C)O)[C@@H](C)O — IC50 (cell migration, antagonist): 2870 nM
